Measured values gathered from unrelated publications.
Each line is one published result; not all experiments were run side by side. Numbers after ± are the reported error.

Compound | cell line | assay | conditions | IC50
O=C(Cc1ccc2ccccc2c1)N[C@H](Cc1ccc(O)cc1)C(=O)N[C@H](Cc1ccccc1)C(=O)N[C@H](Cc1ccccc1)C(=O)N[C@H](Cc1ccc(OP(=O)(O)O)cc1)C(=O)O | HS5 | cell growth or viability, MTT |  | > 443 µg/mL
CC[C@@]1(O)C(=O)OCc2c1cc1n(c2=O)Cc2c-1nc1cc(F)c(C)c3c1c2[C@@H](NC(=O)CCCN)CC3 | KPL4 | cell growth or viability, ATP luminescence | 5 days | 0.0335 µM
Cc1cc(C)c(N2CCN(c3c(C)cc(C)cc3C)C2=[Se])c(C)c1.[Cl][Au] | LoVo MDR | MTT | 72 h | 3 ± 0.4 µM
C=C(C)CC(OC)C(O)C(=O)NC(OC)C1CC(OC(=O)c2ccccc2)C(C)(C)C(CC(O)C(C)C2Cc3c(C)c(O)cc(O)c3C(=O)O2)O1 (single isomer, unassigned; (-)) | IMR-90 | cell growth or viability |  | 0.081 µM
O=C1[O][Pt]2([OH])([OH])([NH]C3CCCCC3[NH]2)[O]C1=O (centres unmarked) | A2780 | cell growth or viability, resazurin | 72 h | 4.03 µM
O=C(Cc1ccc2ccccc2c1)N[C@H](Cc1ccccc1)C(=O)N[C@H](Cc1ccc(O)cc1)C(=O)N[C@H](Cc1ccccc1)C(=O)N[C@H](Cc1ccc(O)cc1)C(=O)O | A2780cis | cell growth or viability, MTT |  | > 500 µg/mL
CC(C)C[C@H](NC(=O)[C@H](CCCCN)NC(=O)[C@H](CC(C)C)NC(=O)[C@H](CC(C)C)NC(=O)[C@H](CCCCN)NC(=O)[C@H](CCCCN)NC(=O)[C@H](CC(C)C)NC(=O)[C@H](CC(C)C)NC(=O)[C@H](CCCCN)NC(=O)[C@H](CC(C)C)NC(=O)[C@H](CC(C)C)NC(=O)[C@H](CCCCN)NC(=O)[C@H](CCCCN)NC(=O)[C@H](CC(C)C)NC(=O)[C@@H](N)CSSC[C@H](N)C(=O)N[C@@H](CC(C)C)C(=O)N[C@@H](Cc1c[nH]cn1)C(=O)N[C@@H](CCC(=O)O)C(=O)N[C@@H](CC(C)C)C(=O)N[C@@H](CC(C)C)C(=O)N[C@@H](CCC(=O)O)C(=O)N[C@@H](Cc1c[nH]cn1)C(=O)N[C@@H](CC(C)C)C(=O)N[C@@H](Cc1c[nH]cn1)C(=O)N[C@@H](CCC(=O)O)C(=O)N[C@@H](CC(C)C)C(=O)N[C@@H](CC(C)C)C(=O)N[C@@H](CCC(=O)O)C(=O)N[C@@H](Cc1c[nH]cn1)C(N)=O)C(N)=O | RG | cell viability, MTT | 0.5 h, pH 7.4 | > 100 µM
O=S(=O)([O][Pt]([O]S(=O)(=O)C(F)(F)F)([PH](c1ccccc1)(c1ccccc1)c1ccc[cH-]1)[PH](c1ccccc1)(c1ccccc1)c1ccc[cH-]1)C(F)(F)F.[Fe+2] | SNU80 | cell growth, MTT | 24 h | 70.1 µM
COc1cc(C=CC(=O)CC(=O)C=Cc2ccc(OC(=O)CCC(=O)OC3OC4OC5(C)CCC6C(C)CCC(C3C)C46OO5)c(OC)c2)ccc1OC(=O)CCC(=O)OC1OC2OC3(C)CCC4C(C)CCC(C1C)C24OO3 (centres unmarked) | RPMI-7951 | cell viability, MTT | 24 h, without deferoxamine | 1.37 ± 0.9 µM
CC(C)C[C@H](NC(=O)[C@H](CC(C)C)NC(=O)[C@H](CCC(=O)O)NC(=O)[C@H](Cc1c[nH]cn1)NC(=O)[C@H](CC(C)C)NC(=O)[C@H](Cc1c[nH]cn1)NC(=O)[C@H](CCC(=O)O)NC(=O)[C@H](CC(C)C)NC(=O)[C@H](CC(C)C)NC(=O)[C@H](CCC(=O)O)NC(=O)[C@H](Cc1c[nH]cn1)NC(=O)[C@@H](N)CC(C)C)C(=O)N[C@@H](CCC(=O)O)C(=O)N[C@@H](Cc1c[nH]cn1)C(N)=O | RG | cell viability, MTT | 0.5 h, pH 7.4 | > 100 µM
O=C(Cc1ccc2ccccc2c1)N[C@H](Cc1ccccc1)C(=O)N[C@H](Cc1ccccc1)C(=O)N[C@H](Cc1ccc(OP(=O)(O)O)cc1)C(=O)N[C@H](Cc1ccc(OP(=O)(O)O)cc1)C(=O)O | HS5 | cell growth or viability, MTT |  | > 483 µg/mL
Cc1cc(C)c(-n2ccn(-c3c(C)cc(C)cc3C)c2=[Se])c(C)c1.[Cl][Ag] | A-431 | cell growth or viability, MTT | 72 h | 0.4 µM
CC[C@H](C)[C@@H]([C@@H](CC(=O)N1CCC[C@H]1[C@H](OC)[C@@H](C)C(=O)N[C@H](C)[C@@H](O)c1ccccc1)OC)N(C)C(=O)[C@@H](NC(=O)[C@@H](NC)C(C)C)C(C)C | LNCaP | cell growth or viability, MTT | 72 h | 0.00106 µM
CC(C)C[C@H](NC(=O)[C@H](CCCCN)NC(=O)[C@H](CC(C)C)NC(=O)[C@H](CC(C)C)NC(=O)[C@H](CCCCN)NC(=O)[C@H](CCCCN)NC(=O)[C@H](CC(C)C)NC(=O)[C@H](CC(C)C)NC(=O)[C@H](CCCCN)NC(=O)[C@H](CC(C)C)NC(=O)[C@H](CC(C)C)NC(=O)[C@H](CCCCN)NC(=O)[C@H](CCCCN)NC(=O)[C@H](CC(C)C)NC(=O)[C@@H](N)CSSC[C@H](N)C(=O)N[C@@H](CC(C)C)C(=O)N[C@@H](CCC(=O)O)C(=O)N[C@@H](Cc1c[nH]cn1)C(=O)N[C@@H](CC(C)C)C(=O)N[C@@H](CC(C)C)C(=O)N[C@@H](CCC(=O)O)C(=O)N[C@@H](Cc1c[nH]cn1)C(=O)N[C@@H](CC(C)C)C(=O)N[C@@H](CCC(=O)O)C(=O)N[C@@H](Cc1c[nH]cn1)C(=O)N[C@@H](CC(C)C)C(=O)N[C@@H](CC(C)C)C(=O)N[C@@H](CCC(=O)O)C(=O)N[C@@H](Cc1c[nH]cn1)C(N)=O)C(N)=O | HK-2 | cell growth or viability, MTT | pH 7.4 | > 100 µM
NC1CC1c1ccc(NC(=O)C(Cc2cccc3ccccc23)NC(=O)OCc2ccccc2)cc1 (centres unmarked) | MV4-11 (AML) |  |  | 7.6 ± 0.9 µM
O=C(Nc1ccc(Br)cc1)c1cc(Br)cc(Br)c1O | HEK293T | cell growth, PrestoBlue | 72 h | 5.7 µM
CC[C@H](C)[C@H](NC(=O)[C@H](CCCNC(=N)N)NC(=O)[C@H](CCCNC(=N)N)NC(=O)[C@H](CCCNC(=N)N)NC(=O)[C@@H](NC(=O)[C@@H](NC(=O)[C@H](C)NC(=O)[C@H](CCCNC(=N)N)NC(=O)[C@H](CCCNC(=N)N)NC(=O)[C@H](CCCNC(=N)N)NC(=O)[C@@H]1CCCN1C(=O)[C@@H](N)CCCNC(=N)N)[C@@H](C)O)[C@@H](C)O)C(=O)N[C@H](C(=O)N[C@H](C(=O)NCC(=O)N[C@H](C(=O)N[C@@H](CCCNC(=N)N)C(=O)N[C@@H](CCCNC(=N)N)C(=O)N[C@@H](CCCNC(=N)N)C(=O)N[C@@H](CCCNC(=N)N)C(N)=O)[C@@H](C)O)[C@@H](C)O)[C@@H](C)O | BT-20 | cell viability, CellTiter-Blue | 24 h, serum-free medium | 88.8 ± 1 µM
CC(C)C[C@H](NC(=O)[C@H](CCCCN)NC(=O)[C@H](CC(C)C)NC(=O)[C@H](CC(C)C)NC(=O)[C@H](CCCCN)NC(=O)[C@H](CCCCN)NC(=O)[C@H](CC(C)C)NC(=O)[C@H](CC(C)C)NC(=O)[C@H](CCCCN)NC(=O)[C@H](CC(C)C)NC(=O)[C@H](CC(C)C)NC(=O)[C@H](CCCCN)NC(=O)[C@H](CCCCN)NC(=O)[C@@H](N)CC(C)C)C(N)=O | RG | cell viability, MTT | 0.5 h, pH 7.4 | 10.5 µM
CC[C@H](C)[C@@H]1NC(=O)[C@H](CCCNC(=N)N)NC(=O)C[C@H](c2cccc3ccccc23)NC(=O)[C@@H]2CSSC[C@H](NC(=O)C[C@H](c3cccc4ccccc34)NC(=O)[C@H](CCCNC(=N)N)NC(=O)[C@@H]3CCCN3C(=O)[C@@H]3CCCN3C1=O)C(=O)N[C@@H](Cc1ccccc1)C(=O)N1CCC[C@H]1C(=O)N[C@@H](CC(=O)O)C(=O)N[C@@H](CC(=O)O)C(=O)N[C@@H](Cc1ccccc1)C(=O)N2 | MCF7 (HER2-) | cell growth | 72 h | > 50 µM
CC1COC2(OC3CC4C5CC(OC6OC(C)C(O)C(OC7OC(C)C(O)C(O)C7O)C6O)C6CC(O)CCC6(C)C5CCC4(C)C3C2C)C(O)C1 (centres unmarked) | HEK293T | cell viability, MTT | 48 h | > 100 µM
COc1ccc(C(c2c(C)nn(-c3ccccc3)c2O)c2c(C)nn(-c3ccccc3)c2O)cc1OC | HEK293 | cell growth or viability, MTT | 48 h | > 40 µM
C=C(C)CC(OC)C(O)C(=O)NC(OC)C1CC(OC(C)=O)C(C)(C)C(CC(O)C(C)C2Cc3c(C)c(O)cc(O)c3C(=O)O2)O1 (single isomer, unassigned; (+)) | A2058 | cell growth or viability |  | 0.0004 µM
CC(C)C[C@H](NC(=O)[C@H](C)NC(=O)[C@H](CCCCN)NC(=O)[C@H](C)NC(=O)[C@H](C)NC(=O)[C@@H]1CSCc2cccc(c2)CSC[C@H](NC(=O)[C@H](CCCCN)NC(=O)[C@H](Cc2ccccc2)NC(=O)CN)C(=O)N[C@@H](CC(C)C)C(=O)N[C@@H](CC(C)C)C(=O)N[C@@H](CCCCN)C(=O)N1)C(=O)N[C@H](C(=O)N[C@@H](CCCCN)C(=O)N[C@H](C(=O)N[C@H](C(=O)N[C@@H](CC(C)C)C(=O)N[C@@H](Cc1ccccc1)C(N)=O)C(C)C)[C@@H](C)O)C(C)C | U87 | cell proliferation, CCK-8 | 48 h | 16.7 µM

Some of these lines once more:
Compound | cell line | assay | conditions | IC50
CC1COC2(OC3CC4C5CC(OC6OC(C)C(O)C(OC7OC(C)C(O)C(O)C7O)C6O)C6CC(O)CCC6(C)C5CCC4(C)C3C2C)C(O)C1 (centres unmarked) | HEK293T | cell viability, MTT | 48 h | > 100 µM
CC[C@H](C)[C@@H]1NC(=O)[C@H](CCCNC(=N)N)NC(=O)C[C@H](c2cccc3ccccc23)NC(=O)[C@@H]2CSSC[C@H](NC(=O)C[C@H](c3cccc4ccccc34)NC(=O)[C@H](CCCNC(=N)N)NC(=O)[C@@H]3CCCN3C(=O)[C@@H]3CCCN3C1=O)C(=O)N[C@@H](Cc1ccccc1)C(=O)N1CCC[C@H]1C(=O)N[C@@H](CC(=O)O)C(=O)N[C@@H](CC(=O)O)C(=O)N[C@@H](Cc1ccccc1)C(=O)N2 | MCF7 (HER2-) | cell growth | 72 h | > 50 µM
Cc1cc(C)c(N2CCN(c3c(C)cc(C)cc3C)C2=[Se])c(C)c1.[Cl][Au] | LoVo MDR | MTT | 72 h | 3 ± 0.4 µM
